Assay results gathered from unrelated publications.
Every numbered part comes from another study and shows a few of its results, in no order.
Sequence of UniProt O15294 (whole entry, looked up): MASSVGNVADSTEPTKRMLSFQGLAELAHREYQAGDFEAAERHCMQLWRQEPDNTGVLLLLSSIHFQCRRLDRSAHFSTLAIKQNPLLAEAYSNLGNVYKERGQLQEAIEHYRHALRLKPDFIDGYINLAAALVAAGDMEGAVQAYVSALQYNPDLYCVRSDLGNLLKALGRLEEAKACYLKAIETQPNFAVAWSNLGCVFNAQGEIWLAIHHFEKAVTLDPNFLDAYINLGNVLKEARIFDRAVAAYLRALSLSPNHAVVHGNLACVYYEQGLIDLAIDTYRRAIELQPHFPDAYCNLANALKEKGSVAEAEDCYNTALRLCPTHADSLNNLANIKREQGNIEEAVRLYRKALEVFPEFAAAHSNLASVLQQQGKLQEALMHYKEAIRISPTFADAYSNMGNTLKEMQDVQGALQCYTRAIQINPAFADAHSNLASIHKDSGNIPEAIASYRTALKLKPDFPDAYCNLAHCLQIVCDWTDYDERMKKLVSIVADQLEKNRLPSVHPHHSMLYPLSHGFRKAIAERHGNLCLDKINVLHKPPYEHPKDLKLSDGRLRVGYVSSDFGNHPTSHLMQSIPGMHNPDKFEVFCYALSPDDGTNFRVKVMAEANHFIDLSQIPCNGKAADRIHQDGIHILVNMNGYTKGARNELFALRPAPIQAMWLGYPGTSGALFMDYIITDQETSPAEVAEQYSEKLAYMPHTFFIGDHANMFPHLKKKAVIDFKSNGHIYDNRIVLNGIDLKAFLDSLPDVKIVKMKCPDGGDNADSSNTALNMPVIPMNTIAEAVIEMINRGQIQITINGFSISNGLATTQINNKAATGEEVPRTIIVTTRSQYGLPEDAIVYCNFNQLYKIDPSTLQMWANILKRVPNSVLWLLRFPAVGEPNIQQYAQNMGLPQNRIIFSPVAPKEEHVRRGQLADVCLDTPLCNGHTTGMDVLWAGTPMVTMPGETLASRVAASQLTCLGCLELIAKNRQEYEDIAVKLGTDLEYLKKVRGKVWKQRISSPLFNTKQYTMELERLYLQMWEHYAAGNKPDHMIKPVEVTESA

Series 1 — technique: protein-binding microarray; molecule type: double-stranded DNA, one strand shown; medium: in vitro; concentration: not given; direction: higher = stronger binding
Target: Protein max, full length (MAX, Homo sapiens, UniProt P61244-2, residues 1-151)
Setting: k-mer, scored over probes, only values ≥0.25
Oligonucleotide | E-score
AGCGTGTG | 0.386
CACGCCTA | 0.332
ATGTGGCG | 0.365
ACATGCCA | 0.384
AGCATGTA | 0.372
CGCGCCCA | 0.252
GCATGTCC | 0.353
CGTCGTGC | 0.258

Series 2 — technique: RNAcompete; molecule type: RNA; medium: in vitro; concentration: 20 nM; setting: 7-mer, probes averaged, single round; reference: mean of 7-mers; direction: higher = stronger binding
Target: PABPC1L2, full length, GST fusion (mouse, UniProt A0ABA7IW68)
Construct (chain): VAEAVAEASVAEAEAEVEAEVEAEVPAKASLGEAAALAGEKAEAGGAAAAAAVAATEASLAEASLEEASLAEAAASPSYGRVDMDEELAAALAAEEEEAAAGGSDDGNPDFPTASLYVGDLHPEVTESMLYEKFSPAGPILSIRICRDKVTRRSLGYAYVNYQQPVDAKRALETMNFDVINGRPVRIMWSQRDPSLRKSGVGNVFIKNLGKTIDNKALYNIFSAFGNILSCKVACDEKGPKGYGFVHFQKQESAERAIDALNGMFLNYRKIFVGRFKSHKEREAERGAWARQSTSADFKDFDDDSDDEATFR
Oligonucleotide | 7-mer Z-score
UCCCACC | -0.416
CCCUAAC | -0.349
UUGGGUG | -0.142
UUAGCCG | -0.219
AGUGGUU | -0.195
CGUCGGC | -0.376
GGGCACG | 0.137
UUCUGGU | -0.164

Series 3 — technique: RNA Bind-n-Seq; molecule type: RNA; medium: in vitro; concentration: not given; setting: RNA with constant flanks, ends assumed; reference: input RNA pool; direction: higher = stronger binding
Target: RING finger protein unkempt homolog, zinc fingers 1-6, GST-SBP tag (UNK, Homo sapiens, UniProt Q9C0B0, residues 30-357)
Shared flanks, not repeated: GGGAGUUCUACAGUCCGACGAUC … CAACAGAGGAUUGAGCAUCA
Target sequence (chain): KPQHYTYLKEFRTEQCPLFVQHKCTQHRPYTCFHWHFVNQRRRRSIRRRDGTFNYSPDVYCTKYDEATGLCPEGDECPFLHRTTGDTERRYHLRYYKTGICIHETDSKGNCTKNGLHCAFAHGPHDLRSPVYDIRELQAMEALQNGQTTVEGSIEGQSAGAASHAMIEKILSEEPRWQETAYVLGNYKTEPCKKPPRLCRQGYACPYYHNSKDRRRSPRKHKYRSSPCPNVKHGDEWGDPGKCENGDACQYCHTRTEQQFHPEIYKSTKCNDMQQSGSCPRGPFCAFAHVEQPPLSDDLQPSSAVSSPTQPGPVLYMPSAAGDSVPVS
Oligonucleotide | bound/input enrichment
GAGGAAUUUGGAGUAGUUUCAAAUACAAGAUUGAUUGCUGCUGCUACUUCUGUAUUAAAAACCCGAUUUUCAUAUGCCUUUCCAAAGGAAUUUCCUUAUAGGAUGAAUCAUAUAUUAGAA | 1.09 ratio
GAAAUUAUUAAAAACAAGGGGGGUGGGUAAUAAAUGUAUAUAACAUUAAAUAAUGUAACGCCGGUGCCGAUUCCCAAAUGCAUUUGGAUGUACAGAUCGACUACAGAGUACUUUUUUCUU | 0.316 ratio
GUUUGCUUUGUGAACAUAUGUGUAUUGUAUAUAUUCUGUAUAGUUAUACUGUACUGAAAUAUCCGCUUGUUUGAUAUGAGAAAAAGUAUGUAUUGAGUACCUUUUUGCUAGCCUGAUUGC | 0.494 ratio
UGUUUUUUUAUAGCUGUUUGUAUAAUAUGUGAGUAUUUUAUAGUAUGUUAGUUUUUAACACCGUAAGUGCUGUAAAAUAUACUUCUUUUGUAUUCAAUUAAUCCUUUUUAAUUUUUUUUG | 9.64 ratio
GUGUUUGAGGAGAUGAAUGUGGAUCUGCAGGAGGAGCUGCCGUCCCUGUGGAACAGCCGCGCCGGUUUCUACGUCAACACGUUCCAGAGCAUCGCGGGCCUGGAGGAAAACUUCCACAAG | 0.0564 ratio
GCUGGGCAUAUAAUGGAAUUUUCUCAAGACCAGCAUGGCUCUAGAUUCAUUCAGCUGAAACCCGAGCGUGCCACAGCAGCUGAGCGCCAGCUUGUCUUCAAUGAAAUCCUCCAGGCUGCG | 0.163 ratio
CCAAAGAAGAUACAGUUUGAAGACAGAAGUGUACUCUCUACAAUGCAAUUUACUGUACAGUCCGAAAGCAAAGUGUUAAAUGGAGAAGAUACUUGUUUUUAUUAAACAUUUUGAGAUUUA | 0.144 ratio
UAAGCCCGGAGCCCGGCGCUUUCCCCGCAAGAUGGACGGUUUCGCCGGCAGUCUCGAUGACCGUAUUUCUGCUGCAAGUACUUCUGAUGUUCAAGAUCGCCUGUCAGCUCUUGAGUCACG | 0.0846 ratio

Single results of other studies
Sequence | target | assay | system | conditions | scale | quantity | value
VRQHHHQNAGWHMYH | UDP-N-acetylglucosamine--peptide N-acetylglucosaminyltransferase 110 kDa subunit (OGT, Homo sapiens, UniProt O15294) | binding, phage display NGS | peptide | concentration not given, panning round 2 | reference: input library | enrichment fold change | 6.24
